Measured values from different studies.
Several values in a cell are separate wells, animals, samples, runs or records. ± marks the error that the study gave.
CXCR4: C-X-C chemokine receptor type 4 (CXCR4, Homo sapiens, UniProt P61073)
UniProt P61073, sequence (whole entry, looked up): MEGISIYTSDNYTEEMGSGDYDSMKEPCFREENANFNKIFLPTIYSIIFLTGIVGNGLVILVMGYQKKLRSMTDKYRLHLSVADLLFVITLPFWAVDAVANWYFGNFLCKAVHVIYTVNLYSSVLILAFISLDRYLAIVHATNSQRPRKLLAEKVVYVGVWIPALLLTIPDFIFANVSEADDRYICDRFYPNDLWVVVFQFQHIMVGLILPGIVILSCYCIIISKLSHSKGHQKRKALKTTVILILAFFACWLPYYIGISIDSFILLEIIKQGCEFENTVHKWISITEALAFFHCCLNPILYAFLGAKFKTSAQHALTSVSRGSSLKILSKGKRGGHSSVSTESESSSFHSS
FAAH: Fatty-acid amide hydrolase 1 (FAAH, Homo sapiens, UniProt O00519)
UniProt O00519, sequence (whole entry, looked up): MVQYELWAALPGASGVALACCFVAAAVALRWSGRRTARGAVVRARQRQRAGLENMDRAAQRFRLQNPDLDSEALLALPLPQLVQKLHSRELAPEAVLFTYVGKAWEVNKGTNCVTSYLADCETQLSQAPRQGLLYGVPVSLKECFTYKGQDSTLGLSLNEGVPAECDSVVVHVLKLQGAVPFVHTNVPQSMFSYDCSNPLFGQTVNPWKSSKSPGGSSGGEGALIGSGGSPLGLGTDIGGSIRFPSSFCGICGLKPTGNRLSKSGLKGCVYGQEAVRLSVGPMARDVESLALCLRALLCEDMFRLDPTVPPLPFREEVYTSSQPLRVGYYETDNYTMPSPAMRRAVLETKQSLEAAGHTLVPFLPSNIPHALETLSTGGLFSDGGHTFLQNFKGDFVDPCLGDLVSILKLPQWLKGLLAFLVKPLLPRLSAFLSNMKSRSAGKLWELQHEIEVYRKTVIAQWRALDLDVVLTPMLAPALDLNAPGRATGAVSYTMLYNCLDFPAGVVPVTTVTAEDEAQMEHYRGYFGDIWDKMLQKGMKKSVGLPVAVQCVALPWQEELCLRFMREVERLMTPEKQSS
PARP1: Poly [ADP-ribose] polymerase 1 (PARP1, Homo sapiens, UniProt P09874)
UniProt P09874, sequence (whole entry, looked up): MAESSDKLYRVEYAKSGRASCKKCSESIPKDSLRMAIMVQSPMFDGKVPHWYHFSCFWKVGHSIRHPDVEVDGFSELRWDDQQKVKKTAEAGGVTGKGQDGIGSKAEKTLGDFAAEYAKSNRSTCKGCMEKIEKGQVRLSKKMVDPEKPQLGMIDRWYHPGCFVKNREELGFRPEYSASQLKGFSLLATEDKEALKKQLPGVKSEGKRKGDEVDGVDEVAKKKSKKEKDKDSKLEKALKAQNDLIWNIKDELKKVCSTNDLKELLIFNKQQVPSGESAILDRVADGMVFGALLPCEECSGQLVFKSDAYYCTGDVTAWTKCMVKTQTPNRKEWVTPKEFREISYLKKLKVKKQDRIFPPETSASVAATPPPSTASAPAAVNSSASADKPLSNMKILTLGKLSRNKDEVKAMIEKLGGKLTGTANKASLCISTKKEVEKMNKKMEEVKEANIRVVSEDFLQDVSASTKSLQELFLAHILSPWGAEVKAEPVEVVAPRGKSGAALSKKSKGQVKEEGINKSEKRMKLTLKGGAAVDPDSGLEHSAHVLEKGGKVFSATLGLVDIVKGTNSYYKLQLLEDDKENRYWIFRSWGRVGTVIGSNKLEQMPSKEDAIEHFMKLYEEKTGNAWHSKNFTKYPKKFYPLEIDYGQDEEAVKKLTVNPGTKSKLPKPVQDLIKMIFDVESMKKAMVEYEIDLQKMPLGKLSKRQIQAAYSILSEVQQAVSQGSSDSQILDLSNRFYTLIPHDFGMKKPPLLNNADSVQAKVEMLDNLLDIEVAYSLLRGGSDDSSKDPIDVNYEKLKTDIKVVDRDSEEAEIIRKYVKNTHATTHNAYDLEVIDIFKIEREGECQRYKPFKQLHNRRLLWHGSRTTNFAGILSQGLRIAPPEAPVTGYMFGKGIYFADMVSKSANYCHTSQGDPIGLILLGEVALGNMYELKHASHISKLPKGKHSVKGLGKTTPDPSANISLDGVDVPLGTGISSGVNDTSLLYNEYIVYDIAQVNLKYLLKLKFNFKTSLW
ABCC1: Multidrug resistance-associated protein 1 (ABCC1, Homo sapiens, UniProt P33527)
UniProt O00311, sequence (whole entry, looked up): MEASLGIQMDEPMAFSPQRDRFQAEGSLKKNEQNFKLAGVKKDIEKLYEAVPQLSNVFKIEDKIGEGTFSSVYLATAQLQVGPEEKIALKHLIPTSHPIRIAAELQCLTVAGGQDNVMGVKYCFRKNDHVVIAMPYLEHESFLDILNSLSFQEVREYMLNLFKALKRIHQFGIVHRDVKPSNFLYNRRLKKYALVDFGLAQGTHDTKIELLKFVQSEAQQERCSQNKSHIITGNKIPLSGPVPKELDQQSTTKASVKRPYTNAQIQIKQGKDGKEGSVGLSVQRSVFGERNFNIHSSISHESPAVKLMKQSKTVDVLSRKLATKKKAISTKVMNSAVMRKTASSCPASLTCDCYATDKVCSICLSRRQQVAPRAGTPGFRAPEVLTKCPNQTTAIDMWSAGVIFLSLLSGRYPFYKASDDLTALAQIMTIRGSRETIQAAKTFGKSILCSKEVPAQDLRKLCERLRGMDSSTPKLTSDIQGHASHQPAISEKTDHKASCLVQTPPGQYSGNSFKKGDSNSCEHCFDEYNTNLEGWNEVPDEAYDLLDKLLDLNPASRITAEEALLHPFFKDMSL
UniProt P33527, sequence (whole entry, looked up): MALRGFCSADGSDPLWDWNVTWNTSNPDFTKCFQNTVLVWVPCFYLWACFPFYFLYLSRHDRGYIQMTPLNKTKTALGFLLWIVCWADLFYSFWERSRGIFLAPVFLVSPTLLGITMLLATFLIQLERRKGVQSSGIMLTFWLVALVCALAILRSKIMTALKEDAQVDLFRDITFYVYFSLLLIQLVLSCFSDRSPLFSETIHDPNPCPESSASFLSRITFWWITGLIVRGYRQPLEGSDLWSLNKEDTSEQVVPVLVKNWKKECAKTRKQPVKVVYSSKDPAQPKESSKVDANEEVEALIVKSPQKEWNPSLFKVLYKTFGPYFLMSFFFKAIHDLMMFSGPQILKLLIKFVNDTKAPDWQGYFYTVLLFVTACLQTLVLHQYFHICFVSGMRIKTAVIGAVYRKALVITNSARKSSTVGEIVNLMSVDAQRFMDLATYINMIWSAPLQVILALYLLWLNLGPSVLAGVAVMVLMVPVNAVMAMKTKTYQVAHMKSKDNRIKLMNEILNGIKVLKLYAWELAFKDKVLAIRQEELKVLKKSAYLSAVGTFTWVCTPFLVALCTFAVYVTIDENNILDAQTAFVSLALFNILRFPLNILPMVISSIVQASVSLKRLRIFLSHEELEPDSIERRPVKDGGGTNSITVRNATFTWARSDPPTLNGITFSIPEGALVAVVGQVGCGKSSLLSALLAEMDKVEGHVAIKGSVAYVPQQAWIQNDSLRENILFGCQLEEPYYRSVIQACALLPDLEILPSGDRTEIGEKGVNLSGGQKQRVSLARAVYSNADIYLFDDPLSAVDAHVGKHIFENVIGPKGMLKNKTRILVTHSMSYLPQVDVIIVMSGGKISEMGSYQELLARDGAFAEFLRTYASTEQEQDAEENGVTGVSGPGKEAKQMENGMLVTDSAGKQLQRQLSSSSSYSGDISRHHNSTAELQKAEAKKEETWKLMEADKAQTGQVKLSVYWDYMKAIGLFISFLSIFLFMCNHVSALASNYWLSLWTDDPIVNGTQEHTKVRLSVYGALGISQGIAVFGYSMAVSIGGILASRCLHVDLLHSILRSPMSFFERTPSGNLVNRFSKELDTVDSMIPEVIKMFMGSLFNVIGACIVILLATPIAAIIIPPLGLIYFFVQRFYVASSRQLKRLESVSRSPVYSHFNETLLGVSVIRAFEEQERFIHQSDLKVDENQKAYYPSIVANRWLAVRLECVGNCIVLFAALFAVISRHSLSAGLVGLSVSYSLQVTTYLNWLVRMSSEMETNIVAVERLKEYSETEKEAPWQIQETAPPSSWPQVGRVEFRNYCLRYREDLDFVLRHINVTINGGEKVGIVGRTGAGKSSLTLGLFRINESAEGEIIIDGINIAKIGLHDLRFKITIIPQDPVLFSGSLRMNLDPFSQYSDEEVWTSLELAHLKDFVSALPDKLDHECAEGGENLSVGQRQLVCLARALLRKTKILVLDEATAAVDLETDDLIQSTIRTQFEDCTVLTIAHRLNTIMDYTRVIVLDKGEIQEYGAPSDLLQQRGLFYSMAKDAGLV
UniProt P04035, sequence (whole entry, looked up): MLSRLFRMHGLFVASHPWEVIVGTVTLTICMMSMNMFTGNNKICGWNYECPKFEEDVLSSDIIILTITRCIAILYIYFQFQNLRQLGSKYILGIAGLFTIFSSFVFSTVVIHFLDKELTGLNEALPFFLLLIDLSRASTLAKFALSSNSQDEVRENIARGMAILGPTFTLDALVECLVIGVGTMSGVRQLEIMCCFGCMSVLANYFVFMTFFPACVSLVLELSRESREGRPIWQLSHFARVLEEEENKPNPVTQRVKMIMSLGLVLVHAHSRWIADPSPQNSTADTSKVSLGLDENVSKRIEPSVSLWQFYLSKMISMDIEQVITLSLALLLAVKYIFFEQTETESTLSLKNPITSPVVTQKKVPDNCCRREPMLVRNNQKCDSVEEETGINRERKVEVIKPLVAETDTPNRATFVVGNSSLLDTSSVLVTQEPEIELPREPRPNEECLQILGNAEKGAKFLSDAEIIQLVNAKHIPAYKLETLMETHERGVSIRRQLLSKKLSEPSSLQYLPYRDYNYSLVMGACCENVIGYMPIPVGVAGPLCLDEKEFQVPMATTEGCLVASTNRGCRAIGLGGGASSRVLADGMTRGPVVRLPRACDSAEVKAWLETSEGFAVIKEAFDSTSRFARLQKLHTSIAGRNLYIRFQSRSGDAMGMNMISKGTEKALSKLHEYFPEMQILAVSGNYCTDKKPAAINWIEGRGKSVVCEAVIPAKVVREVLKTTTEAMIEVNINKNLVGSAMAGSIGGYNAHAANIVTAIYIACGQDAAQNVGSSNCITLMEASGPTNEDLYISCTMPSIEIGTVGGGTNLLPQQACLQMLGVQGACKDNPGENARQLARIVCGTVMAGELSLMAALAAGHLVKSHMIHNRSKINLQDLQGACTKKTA

Molecule	target	test	test system	conditions	IC50
O=C(/C=C/c1ccc(O)c2oc(-c3ccc(O)c(O)c3)cc12)O[C@H](Cc1ccc(O)c(O)c1)C(=O)O	HMGCR (Homo sapiens, UniProt P04035)	enzyme activity, inhibitor, absorbance			~8 µM and 8 µM
COc1ccc2c(NC3CCNCC3)nc(NCc3ccc(CNCCCNC4CCCCC4)cc3)nc2c1	CXCR4	ligand displacement, radioligand		cell membranes	~0.01 µM and 0.0068 µM
Cc1cc(N)ccc1/N=N/c1cc(S(=O)(=O)O)c2cccc(S(=O)(=O)O)c2c1	Sentrin-specific protease 2 (Homo sapiens, UniProt Q9HC62)	SUMO-1 precursor cleavage, gel-based			> 60 µM
N#Cc1ccc(OCC2=C(C(F)F)C(=O)c3ccccc3C2=O)cc1	TXNRD1 (Homo sapiens, UniProt Q16881)	enzyme activity, inhibitor		pH 7.4, with preincubation	0.013 µM
COC(=O)c1ccc(O)cc1	FAAH	enzyme activity, inhibitor, fluorescence		with preincubation	> 100 µM
COc1ccc(-c2cc(=O)c3c(OC)c([C@@H]4O[C@H](C(=O)N[C@H](C)C(F)(F)F)[C@@H](O)[C@H](O)[C@H]4O)c(OC)cc3o2)cc1OC	GSK3B (Homo sapiens, UniProt P49841)	enzyme activity, inhibitor, ADP detection			2.3 µM
CCCN1CCC(c2cccc(S(C)(=O)=O)c2)CC1	Cytochrome P450 2D6 (CYP2D6, Homo sapiens, UniProt P10635)	enzyme activity, inhibitor	human, liver microsomes	2 h, pH 7.4, with preincubation	5.5 µM
Cn1c(=O)c(=O)n(C)c2cc(S(=O)(=O)Nc3ccc(Br)cc3)ccc21	DPP4 (Homo sapiens, UniProt P27487)	enzyme activity, inhibitor, fluorescence			0.00071 µM
C[C@H](CCC(=O)O)[C@H]1CC[C@H]2[C@@H]3CC[C@@H]4C[C@H](O)CC[C@]4(C)[C@H]3CC[C@]12C	EPHB4 (Homo sapiens, UniProt P54760)	phosphorylation in cells, inhibitor, ELISA			74 µM
CC(=O)c1ccc(NC(=O)CNNc2nc3ccccc3c(=O)n2-c2ccccc2)cc1	PARP1	enzyme activity, inhibitor, absorbance			0.0904 µM
O=C1c2ccccc2-c2nc3nnnn3nc21	PSMB5 (Homo sapiens, UniProt P28074)	enzyme activity		together with: Suc-LLVY-AMC substrate, ATP	> 30 µM
COC(=O)C(Cc1ccc(CCCC(=O)NCCC(=O)Nc2ccc3nc(C)sc3c2)cc1)C(=O)O (centres unmarked)	LDHB (Homo sapiens, UniProt P07195)	inhibitor, NADH fluorescence		NADH competition, together with: 1440 µM pyruvate, 40 µM NADH	26.9 ± 3 µM
COC(=O)c1ccc(-c2ccc3c(c2)[nH]c2ccncc23)cn1	MAPT (Homo sapiens, UniProt P10636)	ligand displacement, radioligand			> 10 µM
Cn1cnc2c(NCc3ccc(CNCCCNC4CCCCC4)cc3)nc(N3CCNCC3)nc21	CXCR4	ligand displacement, radioligand		cell membranes	0.0862 µM
NC(=O)c1cc([N+](=O)[O-])cc2c1OCCO2	PARP1				> 5 µM
CCc1ccccc1NC(=O)C(C)Sc1nnc(Cc2c[nH]c3ccccc23)o1 (centres unmarked)	alpha-glucosidase	enzyme activity		together with: p-nitrophenyl glucopyranoside	159.8 ± 0.14 µM
CC(=O)O[C@]1(C(C)=O)CC[C@H]2[C@@H]3C[C@H](C)C4=CC(=O)CC[C@]4(C)[C@H]3CC[C@@]21C	CatSper channel complex (Homo sapiens, UniProt Q7RTX7+Q86XQ3+Q8NEC5+Q96P56)	calcium influx, inhibitor	human sperm	pH 8.2, together with: 140 mM K+	> 10 µM
CN1CCC2(CC1)c1ccccc1N(Cc1ccc(C(=O)NO)s1)C2c1ccc(Cl)cc1 (centres unmarked)	Histone deacetylase 8 (Schistosoma mansoni, UniProt A5H660)	enzyme activity, inhibitor, Fluor-de-Lys		varied substrate concentration, together with: Fluor-de-Lys substrate 150 µM	0.041 ± 0.002 µM
insulin icodec	Insulin receptor, isoform B (INSR, Homo sapiens, UniProt P06213)	binding, competitor, scintillation proximity	solubilized receptor	HSA 0%	0.00313 µM

Molecule	target	test	test system	conditions	IC50
Cc1ccc(NC(=S)N2CCN(CC(O)COc3ccccc3C(=O)c3ccccc3)CC2)cc1 (centres unmarked)	ABCB1 (Homo sapiens, UniProt P08183)	daunorubicin efflux, inhibitor	CCRF-CEM vcr 1000 multidrug resistant	together with: daunorubicin	9.48 µM
COc1cccc(Cn2cc(COC(=O)NC3CCCCC3)nn2)c1	FAAH	enzyme activity, inhibitor, fluorescence		cell membranes	0.158 µM
NC(=O)c1cccc2c1OC(c1ccccc1)C(=O)N2 (centres unmarked)	PARP1				~2.5 µM
NS(=O)(=O)c1cccc(S(=O)(=O)c2ccc(Cl)c(Cl)c2)c1	mbtI (Mycobacterium tuberculosis, UniProt P9WFX1)	enzyme activity, inhibitor, fluorescence		pH 8	35.1 µM
[Cl-].[Cl-].[Zn+2]	HVCN1 (Homo sapiens, UniProt Q96D96, D185H/E119H/H140A/H193A)	proton current, inhibitor, whole-cell voltage clamp	human cells	pH 6.5, test pulse 120 mV	13.8 µM
O=c1cc(N2CCOCC2)oc2c(OCc3cccnc3)cccc12	PIK3CB (Homo sapiens, UniProt P42338)	enzyme activity, inhibitor			2.5 µM
COC(=O)C1=C(C)NC(C)=C(C(=O)OCCN(C)Cc2ccccc2)C1c1cccc([N+](=O)[O-])c1 (centres unmarked)	ABCC1	substrate efflux, inhibitor, flow cytometry	ABCC1-overexpressing SupT1-Vin cells	together with: BODIPY-FL-thapsigargin 100 nM	0.6 µM
COc1cccc2cc(-c3nnc(SCC(=O)Nc4ccc(C)c(C)c4)n3-c3ccccc3)oc12	fungal tyrosinase	enzyme activity, inhibitor, dopachrome absorbance		pH 6.8, 37 °C, together with: L-tyrosine substrate	1.82 ± 5.42 µM
O=C(O)CC(C(=O)O)[C@@H]1CCN[C@H]1C(=O)O (relative stereo)	AMPA receptor, rat	binding	cortical synaptosomes	together with: [3H]-AMPA	> 100 µM
O=c1[nH]c2ccccc2n1C1CCN(CCCC(c2ccc(F)cc2)c2ccc(F)cc2)CC1	ABCC1	efflux, inhibitor	SupT1-Vin overexpressing ABCC1	together with: BODIPY FL verapamil 100 nM	9.7 ± 8.2 µM
cyclohexylthiourea	Urea transporter 2 (Rattus norvegicus, UniProt Q62668)	urea transport	MDCK expressing YFP and AQP1	20 min, together with: 800 mM urea gradient	3700 ± 200 µM
C[C@@H](CNCc1ccccc1)N1C[C@H](CCCNC(=N)N)N(CCc2cccc(F)c2)C1=S	L-type calcium channel	binding, radioligand displacement			> 1 µM
O=C(NCc1ccc(F)cc1)C1CCN(S(=O)(=O)c2cc(Cl)cc(Cl)c2)CC1	Na(+)/citrate cotransporter (Homo sapiens, UniProt Q86YT5)	citrate uptake, inhibitor	HepG2	30 min preincubation, washout before uptake, together with: Li+	0.082 ± 0.01 µM
Clc1nc2n[nH]nc2nc1Cl	Genome polyprotein, NS2B-NS3 protease (GP1, West Nile virus, UniProt Q9Q6P4)	enzyme activity, inhibitor		pH 8.0, together with: 20 µM Pyr-RTKR-AMC	0.74 µM
NC(=O)[C@H]1CCN(c2ncnc(N)c2F)C[C@@H]1N1CCC[C@@H](Nc2cc(Cl)cc(C(F)(F)F)c2)C1=O	BTK (Homo sapiens, UniProt Q06187)	phosphorylation, inhibitor	human whole blood	0.5 h, healthy donors, mean	0.05 µM
O=C(Nc1cc(F)c(F)c(F)c1Br)c1cc(S(=O)(=O)N2CCOCC2)c(Cl)cc1Cl	LPAR4 (Homo sapiens, UniProt Q99677)	Ca2+ mobilization, antagonist	CHO	together with: LPA at EC50	> 100 µM
C#Cc1ccc2c(C)cc(=O)oc2c1	Cytochrome P450 1A1 (CYP1A1, Homo sapiens, UniProt P04798)	enzyme activity, inhibitor, fluorescence		6 min, pH 7.6	10.8 µM
O=C(/C=C/c1ccc(O)c(O)c1)O[C@@H]1C[C@](O)(C(=O)O)C[C@@H](O)[C@H]1O	COMT (Homo sapiens, UniProt P21964)	O-methylation	human liver cytosol	mean over samples, together with: 2-hydroxyestradiol 10 µM	1.3 ± 0.1 µM
Tannic acid	Cell division cycle 7-related protein kinase, with DBF4 (CDC7, Homo sapiens, UniProt O00311)	enzyme activity, inhibitor, ADP-Glo		Dbf4 complex, together with: ATP 12.5 µM	~0.8 µM and 0.77 µM

Excerpt of the above:
Molecule	target	test	test system	conditions	IC50
NC(=O)c1cc([N+](=O)[O-])cc2c1OCCO2	PARP1				> 5 µM
CCc1ccccc1NC(=O)C(C)Sc1nnc(Cc2c[nH]c3ccccc23)o1 (centres unmarked)	alpha-glucosidase	enzyme activity		together with: p-nitrophenyl glucopyranoside	159.8 ± 0.14 µM
CC(=O)O[C@]1(C(C)=O)CC[C@H]2[C@@H]3C[C@H](C)C4=CC(=O)CC[C@]4(C)[C@H]3CC[C@@]21C	CatSper channel complex (Homo sapiens, UniProt Q7RTX7+Q86XQ3+Q8NEC5+Q96P56)	calcium influx, inhibitor	human sperm	pH 8.2, together with: 140 mM K+	> 10 µM
CN1CCC2(CC1)c1ccccc1N(Cc1ccc(C(=O)NO)s1)C2c1ccc(Cl)cc1 (centres unmarked)	Histone deacetylase 8 (Schistosoma mansoni, UniProt A5H660)	enzyme activity, inhibitor, Fluor-de-Lys		varied substrate concentration, together with: Fluor-de-Lys substrate 150 µM	0.041 ± 0.002 µM
insulin icodec	Insulin receptor, isoform B (INSR, Homo sapiens, UniProt P06213)	binding, competitor, scintillation proximity	solubilized receptor	HSA 0%	0.00313 µM
